Published values of several laboratories.
Parts stem from different laboratories: compare values within a part only. Positions count from the first letter of the parent shown.

Block 1 — target: CCNB1, cyclin fold, Cln2 fusion (human); technique: yeast growth competition, sequencing; medium: yeast; setting: weak parent motif; relative to: not given; direction: higher = stronger binding
Parent: WEE1 docking peptide (human); CTLRQKLIFSPCS
Change	normalised enrichment score
CTLRQKLIFAPCS [S10A]	0.246
CTLRQKLIFSPAS [C12A]	0.68
CTLRQKAIFSPCS [L7A]	0.214
CTLRQKLIFSACS [P11A]	0.258
CTLAQKLIFSPCS [R4A]	0.441
CALRQKLIFSPCS [T2A]	0.539

Block 2 — technique: DHFR PCA, deep sequencing; medium: yeast; added: (+)-ABA 0.032 µM; relative to: wild-type fitted maximum; direction: higher = stronger binding
Target: ABI1, truncated, D143A, DHFR fusion (Arabidopsis thaliana)
Setting: methotrexate growth selection, single substitutions
Parent: PYL1, truncated, DHFR fusion (Arabidopsis thaliana); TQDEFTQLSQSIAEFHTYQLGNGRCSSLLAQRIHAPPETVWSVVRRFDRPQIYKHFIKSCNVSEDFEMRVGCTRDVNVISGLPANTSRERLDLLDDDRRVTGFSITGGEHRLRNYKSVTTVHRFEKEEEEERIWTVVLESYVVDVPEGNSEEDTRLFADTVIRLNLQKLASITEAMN
Change	relative binding score
L91K	7.91%
Q2V	60.4%
A175T	12.3%
Y18Q	-2.07%
H55I	19.6%
D159K	-5.95%
V161C	47.1%
I52D	43.2%
L8M	6.61%
V76D	2.03%
R113A	10.5%
V78H	51.9%
P50E	-10.2%
K168P	-2.59%
R45L	-1.12%
M68E	-0.178%
E64N	25.4%

Block 3 — technique: RNA Bind-n-Seq; form: RNA; medium: in vitro; tested at: 200 nM; setting: whole 134-nt RNA, ends assumed; added: 150 mM KCl; relative to: input library; direction: higher = stronger binding
Target: Ras GTPase-activating protein-binding protein 1, full length (G3BP1, Homo sapiens, UniProt Q13283)
Sequence of UniProt Q13283 (whole entry, looked up): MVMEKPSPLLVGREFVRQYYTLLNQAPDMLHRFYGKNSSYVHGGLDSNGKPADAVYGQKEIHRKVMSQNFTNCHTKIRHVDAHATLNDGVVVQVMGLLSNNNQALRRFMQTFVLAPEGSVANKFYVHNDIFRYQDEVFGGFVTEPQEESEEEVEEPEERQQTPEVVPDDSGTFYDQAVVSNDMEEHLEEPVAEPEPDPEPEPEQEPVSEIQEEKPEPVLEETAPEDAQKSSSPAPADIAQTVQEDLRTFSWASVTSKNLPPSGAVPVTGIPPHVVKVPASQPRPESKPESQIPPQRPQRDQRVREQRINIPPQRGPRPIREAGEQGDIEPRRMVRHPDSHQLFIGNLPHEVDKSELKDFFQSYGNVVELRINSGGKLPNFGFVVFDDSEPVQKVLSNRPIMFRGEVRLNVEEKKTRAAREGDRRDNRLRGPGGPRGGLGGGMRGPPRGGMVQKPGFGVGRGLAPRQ
Shared flanks, not repeated: GGGAGUUCUACAGUCCGACGAUC … UGGAAUUCUCGGGUGUCAAGG
Sequence	log2 enrichment
AGUCCUGUGCUACACAUCGUAUGUACCGAAUCGGGGCCCCGGGGCCCCGGCCCCGGGGAAAGUAUUAUGUUACGCCGUUCGGAUCUGCAC	-0.549
AAGUCCUGUGCUACACAUCGUAUGUACCGAAUCGGGGUGGGGAGGGGAAAAAGGGGAAAGUAUUAUGUUACGCCGUUCGGAUCUGCACUU	0.523
UUGCUAAUCUAUAAAUUUUUUUUAUAUGAAAUAGCUCAUAGUCGGAAGCCGGCACCCUCAAAUGAGCCCGAAUAUCUAUGUAAAUGGAUG	-1.96
UCCUGUGCUACACAUCGUAUGUACCGAAUCGGGGUUUUUGGGGUGGGGAAAAAAAGGGGAAAGUAUUAUGUUACGCCGUUCGGAUCUGCA	0.656
UAACUUUAGAGGAGGAUCUGAUGGAUAUGGCAGUGGACGUGGAUUUGGGGAUAGCUAUAAUGGGUAUGGAGGAGGACCUGGAGGUGGCAA	0.473
GCAGGAAGUAAAAACAAAUGGAAAUGCUUCGGAUAGUGGCAGGGGUGGGGGUUGCUAAGGAAAGGGUGGGAUCGGAGUGGGUAAAGAGUU	0.822
CCUCAAGUCCUGUGCUACACAUCGUAUGUACCGAAUCGGGCCGGCCGGCCGGAAAGUAUUAUGUUACGCCGUUCGGAUCUGCACUUCCAG	0.256
UGCUGCGGAAGGGCUCUGGCACUCUGUGUGAGGCCUUGCUGAUGGUGCAGGCCUUCCACGCCAACAUCAUCUUCCCCAACAAGCAAGAGC	0.118
CAAGUCCUGUGCUACACAUCGUAUGUACCGAAUCGGGGUUUGGGGAGGGGAGGGGAAAGUAUUAUGUUACGCCGUUCGGAUCUGCACUUC	1.26
CACAGACAACACGCACCCACACAGACACAGAGGGAAGGGGUUGGGACGGGGACAGGGUGCACAGCAGGGCGGGGUAGGACCCCAGCCCCU	1.84
UUCCCCUGGAGGGCGCCUCCAUCCUUGGAGGCCUAGUGCCGUCGGAGAGAGAGCGGGAGCCGCGGACAGAGACGCGUGCGCAAUUCGGAG	-1.18
AAGUCCUGUGCUACACAUCGUAUGUACCGAAUCGGGAAAAAGGGAAAGGGAAAGGGAAAGUAUUAUGUUACGCCGUUCGGAUCUGCACUU	0.0618
CUCAAGUCCUGUGCUACACAUCGUAUGUACCGAAUCGGUUUGGUUUGGUUUGGGAAAGUAUUAUGUUACGCCGUUCGGAUCUGCACUUCC	-0.597
CUGUGCUACACAUCGUAUGUACCGAAUCGGGAAAAAAAGGGAAAAAAAGGGUUUUUUUGGGAAAGUAUUAUGUUACGCCGUUCGGAUCUG	-1.28

Mixed results
Molecule	target	test	test system	conditions	scale	measurement	value
PhoQ, residues 284 288 289 292 302 303 SSTLLI	PhoP, residues 12 14 15 18 19 TQAML (Escherichia coli, UniProt P23836)	Sort-seq, item: YFP reporter	E. coli	PhoQ-PhoP variant library, added: 10 µM Mg2+	relative to: high Mg2+ state, higher = stronger signaling	fold induction	22

Excerpt of the above (block 1):
Change	normalised enrichment score
CTLRQKLIFAPCS [S10A]	0.246
CTLRQKLIFSPAS [C12A]	0.68
CTLRQKAIFSPCS [L7A]	0.214
